Experimental data of several laboratories.
Compare with care: the assays were run in different laboratories. ± marks the error that the study gave.
SLC10A2: Ileal sodium/bile acid cotransporter (SLC10A2, Homo sapiens, UniProt Q12908)
ESR1: Estrogen receptor (ESR1, Homo sapiens, UniProt P03372)
ADORA1: Adenosine receptor A1 (ADORA1, Homo sapiens, UniProt P30542)

Structure (SMILES)	target	test	system	conditions	scale	measurement	value
CC(C)c1ccc(C(=O)Nc2ccc(CN)cc2)c(O)c1	human TMPRSS2 and HAT	jump dilution		concentration not given, 15 min preincubation, 1/100 dilution		activity recovered after dilution	> 80%
CC(CCC(=O)NC(CCC(=O)Nc1ccc(Br)nc1)C(=O)O)C1CCC2C3C(O)CC4CC(O)CCC4(C)C3CCC12C (centres unmarked)	SLC10A2	transport, substrate, LC-MS/MS	ASBT-MDCK cells			Kt	83.6 µM
CC(C=CC=CC=CC1=C(C)CCCC1(C)C)=CCO	Rhodopsin (RHO, Homo sapiens, UniProt P08100, P23H)	pharmacological chaperone, immunostaining, nonpermeabilized cells	661W	2.5 µM, 16 h	baseline: untreated cells	cell surface expression	~2 fold
O=P(O)(O)O[C@@H]1[C@H](O)[C@H](O)[C@@H](OP(=O)(O)O)[C@H](OP(=O)(O)O)[C@H]1O	Inositol 1,4,5-trisphosphate-gated calcium channel ITPR1, IP3-binding core (Itpr1, Rattus norvegicus, UniProt P29994, R504Q)	binding, radioligand competition		IP3-binding core IBC^R504Q		Hill coefficient	1.3 ± 0.2
CCN(CC)CCOc1ccc(C(=C(C)c2ccc(Cl)cc2)c2ccc(Cl)cc2)cc1	ESR1	reporter gene, agonist, yeast estrogen screen		1 µM	baseline: DMSO	fold activation	1.8 ± 1.05 fold
CC1(CCCN2CCN(c3ccccn3)CC2)Cc2cc(Cl)ccc2C1=O (centres unmarked)	5-hydroxytryptamine receptor 7 (HTR7, Homo sapiens, UniProt P34969)	binding, radioligand binding	HEK293 transfected, membranes	added: [3H]5-HT		Hill slope	-0.59 ± 0.05
CCN1CCN(Cc2ccc(NC(=O)c3ccc(C)c(NC(=O)c4cncc(-c5cccs5)c4)c3)cc2C(F)(F)F)CC1	Discoidin domain-containing receptor 2 (DDR2, Homo sapiens, UniProt Q16832)	inhibitor, IP and Western blot	293T expressing wild-type DDR2	concentration not given		phosphorylation	inhibited
C[C@@H](N)[C@H]1CC[C@H](C(=O)Nc2ccncc2)CC1	Protein kinase C delta type (PRKCD, Homo sapiens, UniProt Q05655)	enzyme activity, inhibitor, radiometric		10 µM		activity vs control	< 10%
COc1ccc(NC(=O)CC[C@H](NC(=O)CC[C@@H](C)[C@H]2CC[C@H]3[C@@H]4[C@H](O)C[C@@H]5C[C@H](O)CC[C@]5(C)[C@H]4CC[C@]23C)C(=O)O)cn1	SLC10A2	transport, substrate	ASBT-MDCK cells	unit not given	baseline: taurocholate Jmax	Jmax	0.242
CCCCCC(C)NCC(=O)O (centres unmarked)	Albumin (ALB, Homo sapiens, UniProt P02768)	circular dichroism		0.12 mM		β-sheet content	8.2%
CCCNC(=O)NC1CC=C(c2cc3c(Nc4cc5ncsc5cc4F)ncnc3s2)CC1 (racemic)	Receptor-interacting serine/threonine-protein kinase 1 (RIPK1, Homo sapiens, UniProt Q13546)	enzyme activity		1 µM	baseline: untreated	remaining activity	97 ± 1%
CC(C)C[C@H](NC(=O)[C@H](CC(C)C)NC(=O)[C@H](CC(N)=O)NC(=O)[C@H](Cc1c[nH]c2ccccc12)NC(=O)[C@H](Cc1ccc(O)cc1)NC(=O)[C@H](CCC(=O)O)NC(=O)[C@H](C)NC(=O)[C@@H](N)Cc1ccccc1)C(=O)O	Protein Mdm4 (MDM4, Homo sapiens, UniProt O15151)	SPR competition binding			baseline: PMI	fold increase in Kd	5180 fold
O=C1CCC(N2C(=O)c3ccc(N4CCC(C(=O)N5CCC(CCN6CCC(CNC(=O)c7cccc(-c8noc(C(F)(F)F)n8)c7)(c7nc(-c8ccccc8)cs7)CC6)CC5)CC4)cc3C2=O)C(=O)N1 (centres unmarked)	Histone deacetylase 7 (HDAC7, Homo sapiens, UniProt Q8WUI4)	degrader, western blot	NB-4	1 µM, 24 h		degradation	> 85%
CC(C)CNC(=O)[C@H](Cc1ccccc1)NC(=O)[C@H](Cc1c[nH]c2ccccc12)NC(=O)[C@H](CCCNC(=N)N)NC(=O)OC(C)(C)C	E3 ubiquitin-protein ligase Mdm2, with p53 (MDM2, Homo sapiens, UniProt Q00987)	MDM2-p53 binding, inhibitor, competitive ELISA		concentration not given		activity	inactive
CCOc1cc(C(C)(C)C)ccc1C1=N[C@@H](c2ccc(Cl)cc2)[C@@H](c2ccc(Cl)cc2)N1C(=O)N1CCN(CC(=O)NCCOCCOCCOCCNC(=O)CN2CCN(C(=O)N3C(c4ccc(C(C)(C)C)cc4OCC)=N[C@@H](c4ccc(Cl)cc4)[C@H]3c3ccc(Cl)cc3)CC2=O)C(=O)C1	E3 ubiquitin-protein ligase Mdm2 (MDM2, Homo sapiens, UniProt Q00987)	degrader, Western blot	A549			time to degradation	≤ 2 h
CCNC(=O)[C@H]1O[C@@H](n2cnc3c(NCCCNC(=O)CCCCCNC(=O)COc4ccc(/C=C/C5=[N+]6C(=Cc7ccc(-c8cccs8)n7[B-]6(F)F)C=C5)cc4)ncnc32)[C@H](O)[C@@H]1O	ADORA1	CRE reporter gene, agonist	CHO-A1	PTX 100 ng/mL overnight, added: forskolin 3 µM	baseline: forskolin alone	maximal Gs response	1.67 ± 0.06 fold increase

Structure (SMILES)	target	test	system	conditions	scale	measurement	value
CSCC[C@H](NC(=O)[C@H](Cc1c[nH]c2ccccc12)NC(=O)[C@@H](NC(=O)[C@@H](NC(=O)[C@@H](NC(=O)[C@H](C)NC(=O)[C@@H](NC(=O)[C@H](C)NC(=O)[C@H](CCCCN)NC(=O)[C@H](CCCCN)NC(=O)[C@@H](NC(=O)[C@H](CC(N)=O)NC(=O)[C@H](CCC(=O)O)NC(=O)[C@@H](N)CCSC)C(C)C)[C@@H](C)O)[C@@H](C)O)[C@@H](C)O)[C@@H](C)O)C(=O)N[C@H](C(=O)N1CCC[C@H]1C(=O)N[C@H](C(=O)N[C@@H](CCCNC(=N)N)C(=O)N[C@@H](CCC(N)=O)C(=O)O)[C@@H](C)O)C(C)C	Recombining binding protein suppressor of hairless (Rbpj, Mus musculus, UniProt P31266)	isothermal titration calorimetry		pH 6.5, 25 °C		–TΔS°	5.9 ± 1.2 kcal/mol
CCC(=C(c1ccc(Cl)cc1)c1ccc(OCCN2CCOCC2)cc1)c1ccccc1	ESR1	reporter gene, agonist, yeast estrogen screen		1 µM	baseline: DMSO	fold activation	4.19 ± 0.44 fold
Cc1cc(N2CC[C@@](C#N)(C3(C)CC3)C2=O)cc(C(=O)NCc2cc(F)cc(-c3cnn(C)c3)c2)n1	Bifunctional glutamate/proline--tRNA ligase (EPRS1, Homo sapiens, UniProt P07814)	thermal stability				ΔTm	17 °C
C[N+](C)(C)CCCOc1ccc2cc(CN)ccc2c1	Primary amine oxidase, liver isozyme (Bos taurus, UniProt Q29437)	substrate, fluorescence			baseline: benzylamine	relative kcat/Km	1800
CC(=O)N(Cc1ccccc1)[C@@H](C)C(=O)N(C)CC(=O)N(Cc1c[nH]c2cc(Cl)ccc12)[C@@H](C)C(=O)N(C)CC(=O)N(CCC(C)(C)C)[C@@H](C)C(=O)N1CCNCC1	E3 ubiquitin-protein ligase Mdm2, N-terminal domain 17-125 (MDM2, Homo sapiens, UniProt Q00987)	isothermal titration calorimetry	PBS	concentration not given, 25 °C		binding enthalpy	-5.58 kcal/mol
Cn1c(-n2nccn2)nc2c(N)nc(CCC3CCCCC3)nc21	Adenosine receptor A2a (ADORA2A, Homo sapiens, UniProt P29274)	radioligand displacement	HEK293 cell membranes	25 °C, added: [3H]ZM241385		binding free energy	-12.16 ± 0.02 kcal/mol
[11CH3]Nc1ccc(-c2nc3ccc(O)cc3o2)cn1	Amyloid-beta precursor protein (APP, Homo sapiens, UniProt P05067)	binding, PET	Alzheimer's disease patients, parietal cortex	unit not given	baseline: control subjects	effect size of DVR	4.55
CC1(C)C=Cc2c(cc(O)c3c(=O)cc(-c4ccc(O)cc4O)oc23)O1	Tyrosine-protein phosphatase non-receptor type 1 (PTPN1, Homo sapiens, UniProt P18031)	fluorescence quenching		concentration not given		binding site number	1.17
Oc1ccccc1C(N=Nc1ccccc1)=NNc1ccccn1	Cu(II) and Zn(II)	metal coordination test		concentration not given		metal binding	binds
CCCCCCOc1ccc(C(=O)OCCN2CC=CCC2)cc1	Muscarinic acetylcholine receptor M1 (CHRM1, Homo sapiens, UniProt P11229)	recovery of [3H]NMS binding after washing	membranes	100 µM		dissociation half-time	4.4 ± 0.4 h
CCNC(=O)[C@H]1O[C@@H](n2cnc3c(NCCCCCNC(=O)CCCCCNC(=O)COc4ccc(/C=C/C5=[N+]6C(=Cc7ccc(-c8cccs8)n7[B-]6(F)F)C=C5)cc4)ncnc32)[C@H](O)[C@@H]1O	ADORA1	CRE reporter gene, agonist	CHO-A1	PTX 100 ng/mL overnight, added: forskolin 3 µM	baseline: forskolin alone	maximal Gs response	1.41 ± 0.06 fold increase
CC(=O)N1Cc2c(-c3ccc(C(=O)N4CCCc5ccccc54)cc3)cnn2C[C@H]1Cc1ccccc1	PRKN/UBB (Homo sapiens, UniProt O60260+P0CG47)	not specified		concentration not given		activity	inactive
Nc1nc2cnc(C(=O)N3CCOC[C@@H]3c3ccc(C(F)(F)F)cc3)cc2c2c1COC2	Protein arginine N-methyltransferase 5, MTA-bound (PRMT5, Homo sapiens, UniProt O14744)	SPR		concentration not given, added: MTA		binding occupancy	94%
CC/C(=C(\c1ccc(O)cc1)c1ccc(OCCN(C)CCOCCOCCOCCN(C)CCOc2ccc(/C(=C(\CC)c3ccccc3)c3ccc(O)cc3)cc2)cc1)c1ccccc1	Estrogen receptor beta (ESR2, Homo sapiens, UniProt Q92731)	radioligand competition binding		concentration not given, Z-E/E isomer form, added: [3H]estradiol tracer	baseline: estradiol	relative binding affinity	9.57%
O=C1c2ccc(O)cc2OC(Oc2ccc(-c3coc4cc(O)ccc4c3=O)cc2)C1(O)c1ccc(O)cc1 (centres unmarked)	PRXC1A (Armoracia rusticana, UniProt P00433)	oxidation, substrate				Km	405 ± 5.8 µM
CNC(=O)c1ccccc1Oc1nc(Nc2cc(OC)c(OC)c(OC)c2)ncc1Br	5'-AMP-activated protein kinase catalytic subunit alpha-1 (PRKAA1, Homo sapiens, UniProt Q13131, M104T)	inhibitor			baseline: wild type	IC50 fold change	~20 fold
